Results gathered from unrelated publications.
Each numbered part is a random draw from the data of one study; scales do not carry over between parts. Substitutions count along the parent as printed.

Set 1 — method: two-hybrid; relative to: out of 4 tests; direction: higher = firmer interaction
Partner: ARF11 500-622 (Arabidopsis thaliana, UniProt Q9ZPY6)
B1: ARF2 727-859 (Arabidopsis thaliana, UniProt Q94JM3); chain TKTNSSRSCTKVHKQGIALGRSVDLSKFQNYEELVAELDRLFEFNGELMAPKKDWLIVYTDEENDMMLVGDDPWQEFCCMVRKIFIYTKEEVRKMNPGTLSCRSEEEAVVGEGSDAKDAKSASNPSLSSAGNS
B2: IAA33 (Arabidopsis thaliana, UniProt Q9FKM7); chain MNSFEPQSQDSLQRRFHQDNSTTQQPRDTTTPFIPKPASKNHNNSNSSSGAAGRSFQGFGLNVEDDLVSSVVPPVTVVLEGRSICQRISLDKHGSYQSLASALRQMFVDGADSTDDLDLSNAIPGHLIAYEDMENDLLLAGDLTWKDFVRVAKRIRILPVKGNTRQVKRNE
B3: IAA34 (Arabidopsis thaliana, UniProt Q9C5X0); chain MYCSDPPHPLHLVASDKQQKDHKLILSWKKPTMDSDPLGVFPNSPKYHPYYSQTTEFGGVIDLGLSLRTIQHEIYHSSGQRYCSNEGYRRKWGYVKVTMDGLVVGRKVCVLDHGSYSTLAHQLEDMFGMQSVSGLRLFQMESEFCLVYRDEEGLWRNAGDVPWNEFIESVERLRITRRNDAVLPF
B4: ARF1 538-665 (Arabidopsis thaliana, UniProt Q8L7G0); chain SRQIRSCTKVHMQGSAVGRAIDLTRSECYEDLFKKLEEMFDIKGELLESTKKWQVVYTDDEDDMMMVGDDPWNEFCGMVRKIFIYTPEEVKKLSPKNKLAVNARMQLKADAEENGNTEGRSSSMAGSR
B5: ARF7 1030-1164 (Arabidopsis thaliana, UniProt P93022); chain PAQTQRMRTYTKVQKRGSVGRSIDVNRYRGYDELRHDLARMFGIEGQLEDPQTSDWKLVYVDHENDILLVGDDPWEEFVNCVQSIKILSSAEVQQMSLDGNFAGVPVTNQACSGGDSGNAWRGHYDDNSATSFNR
B6: ARF8 699-811 (Arabidopsis thaliana, UniProt Q9FGV1); chain NSSNQTKNFVKVYKSGSVGRSLDISRFSSYHELREELGKMFAIEGLLEDPLRSGWQLVFVDKENDILLLGDDPWESFVNNVWYIKILSPEDVHQMGDHGEGSGGLFPQNPTHL
Target sequence (chain): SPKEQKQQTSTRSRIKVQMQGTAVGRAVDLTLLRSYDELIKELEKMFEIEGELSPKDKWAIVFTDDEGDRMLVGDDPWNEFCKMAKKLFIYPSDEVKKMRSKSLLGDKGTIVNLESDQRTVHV
| Sequence | positive tests |
| --- | --- |
| B1 (ARF2 727-859) | 0 |
| B2 (IAA33) | 1 |
| B3 (IAA34) | 1 |
| B4 (ARF1 538-665) | 0 |
| B5 (ARF7 1030-1164) | 0 |
| B6 (ARF8 699-811) | 0 |

Set 2 — target: CCNF, cyclin fold, Cln2 fusion (human); method: yeast growth competition, sequencing; matrix: yeast; setting: strong parent motif; relative to: not given; direction: higher = stronger binding; starting sequence: viral docking peptide; YKVKRRLVFGADD
| Variant | normalised enrichment score |
| --- | --- |
| V8N | 8.93 |
| A11I | 8.68 |
| V8Y | 9.08 |
| D12K | 8.85 |
| G10A | 9.59 |
| R6I | 8.18 |
| K2D | 8.11 |
| D13A | 8.89 |
| V3N | 6.35 |
| D12Q | 8.95 |
| R6N | 7.55 |
| G10Y | 7.8 |
| R5F | 1.04 |
| L7Q | 0.452 |
| K2S | 7.93 |

Set 3 — target: FOSB, bZIP domain (human); method: DHFR protein complementation; matrix: yeast; relative to: wild-type JUN-FOS pair; direction: higher = stronger binding
Setting: single substitutions, most at no-binding floor
Starting sequence: JUN, bZIP domain (human); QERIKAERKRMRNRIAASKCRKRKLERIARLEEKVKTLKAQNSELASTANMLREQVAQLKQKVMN; partner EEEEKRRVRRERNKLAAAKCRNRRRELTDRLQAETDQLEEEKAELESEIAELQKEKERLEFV
| Variant | binding fitness [natural log] |
| --- | --- |
| K34Y | -0.169 |
| K34S | -0.198 |
| E44W | -0.41 |
| N42D | -1.16 |
| S43H | -0.0621 |
| E33S | -0.212 |
| M51H | -0.122 |
| A40E | -0.0126 |

Further values, each from its own experiment
| Sequence | target | assay | test system | conditions | measurement | value |
| --- | --- | --- | --- | --- | --- | --- |
| YYRYPTGESY | HLA class I histocompatibility antigen, C alpha chain, allele C*04:01 (Homo sapiens, UniProt P10321) | peptide-MHC binding | peptide | concentration not given | binding | inactive |

For quick reference, copied from above (set 3):
| Variant | binding fitness [natural log] |
| --- | --- |
| E44W | -0.41 |
| S43H | -0.0621 |
| M51H | -0.122 |
| A40E | -0.0126 |
| N42D | -1.16 |
